Results collected from several papers.
Lines come from different studies, so protocols differ. “And” joins repeats or separate records; there may be more than shown.
CHEK2: Serine/threonine-protein kinase Chk2 (CHEK2, Homo sapiens, UniProt O96017)
UniProt O96017, sequence (whole entry, unmodified, looked up): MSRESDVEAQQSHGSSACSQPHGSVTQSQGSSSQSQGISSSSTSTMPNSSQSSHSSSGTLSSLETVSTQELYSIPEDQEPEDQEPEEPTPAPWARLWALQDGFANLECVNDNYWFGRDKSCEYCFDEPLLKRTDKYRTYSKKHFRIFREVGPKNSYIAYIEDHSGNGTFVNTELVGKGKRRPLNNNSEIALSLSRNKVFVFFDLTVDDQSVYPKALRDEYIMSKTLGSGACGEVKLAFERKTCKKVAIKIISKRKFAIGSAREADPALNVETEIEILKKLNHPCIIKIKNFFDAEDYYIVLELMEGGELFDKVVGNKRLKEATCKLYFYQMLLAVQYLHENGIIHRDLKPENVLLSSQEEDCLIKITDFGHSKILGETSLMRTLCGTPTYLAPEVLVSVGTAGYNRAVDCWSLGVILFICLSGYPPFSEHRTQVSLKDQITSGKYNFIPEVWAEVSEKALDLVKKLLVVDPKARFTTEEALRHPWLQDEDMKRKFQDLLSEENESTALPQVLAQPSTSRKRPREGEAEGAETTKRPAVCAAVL
CHEK2 I157T: Serine/threonine-protein kinase Chk2 (CHEK2, Homo sapiens, UniProt O96017, I157T)

c1ccc2c(Nc3cc(C4CCC4)[nH]n3)nc(Nc3ccc4nc[nH]c4c3)nc2c1
remaining activity (CHEK2; enzyme activity, inhibitor; 0.25 µM): 8%

CNC1C[S+]2CC[S+]3CC[S+](C1)[Ru-4]321([N]=C=S)[n]2c3ccc(OC)cc3c3c4c(c5cc(F)c[n+]1c5c32)C(=O)NC4=O (stereo not drawn)
remaining binding (CHEK2; KinomeScan; 0.1 µM; relative to: untreated): 91%

Cc1ccc(-c2c(/C=C(\C#N)C(=O)NC(C)C)n(CCCO)c3ncnc(N)c23)cc1
remaining binding (CHEK2; cell-free assay, competition with immobilised ligand; 1 µM): 100%

Cc1nc2c(F)cc(-c3nc(Nc4ccc(CNC(=O)CCCCCCC(=O)NO)cc4)ncc3F)cc2n1C(C)C
inhibition (CHEK2 I157T; enzyme activity, inhibitor; 1 µM): 60%

NC(=O)[C@@H](O)C[C@H]1CCc2sc3ncnc(O[C@H]4CC[C@H](N5CCOCC5)CC4)c3c21
inhibition (CHEK2; enzyme activity, inhibitor; 10 µM): 8%

CCN1CCN(Cc2ccc(C(=O)Nc3ccc(C)c(NCc4cnc5[nH]ccc5c4OC)c3)cc2C(F)(F)F)CC1
remaining binding (CHEK2; binding, competition with immobilised ligand; 1 µM): 100%

Cc1cccc(-c2ccc3nc(NC(=O)C4CCOCC4)nn3c2)c1
remaining activity (CHEK2; enzyme activity, Dundee kinase panel; 10 µM): 93%

O=C(Cc1ccc(OCc2ccccc2)cc1)NC1(C(=O)O)CCN(C(=O)c2ccc(-c3cccc(Cl)c3)cc2)CC1
activity vs control (CHEK2; enzyme activity, inhibitor; 10 µM): 107%

CCn1cc(C(=O)O)c(=O)c2c(N)c(F)c(NC3CCCCC3)cc21
inhibition (CHEK2; kinase activity; 0.1 µM, together with: ATP at Km): 4.9%

Cc1cccc(-c2ccc3nc(NC(=O)C4CCCCC4)nn3c2)c1
remaining activity (CHEK2; enzyme activity, Dundee kinase panel; 10 µM): 95%

CN1CC[C@@H](COc2cnc(C#N)cc2-c2ccn3nc(NC(=O)C4CC4)cc3c2)C1
inhibition (CHEK2; enzyme activity, inhibitor; 1 µM): 19%

CNC(=O)C1CCN(c2cc(C)c(F)cc2NC(=O)c2ccc(-c3cc(O)ccc3C)c(C)c2)CC1
remaining binding (CHEK2; binding, competition with immobilised ligand; 1 µM): 98%

COCC12C(=O)NC3C4(C(OC)CC1O)C1CC5(O)C(OC)C(O)C(OC(C)=O)(C1C5OC(=O)c1ccccc1)C3(O)C(OC)C24 (stereo not drawn)
remaining activity (CHEK2; kinase activity, inhibitor, ProQinase kinase profiling; 25 µM; relative to: control): 101% and 95%

COc1cc(-n2cc3cc(F)cc(C(N)=O)c3n2)cc(Cl)c1C1CC(O)(CCO)Cc2ccccc21 (stereo not drawn)
inhibition (CHEK2; enzyme activity, inhibitor; 10 µM): 5.78%

Nc1ncc2c(n1)-c1c([nH]c3ccc(C4=CCOCC4)cc13)CCC2
remaining binding (CHEK2; binding, competition with immobilised ligand; 1 µM): 75%

C=CC(=O)N1CCc2ccc(-n3c(=O)ccc4cnc5ccc(-c6cnn(C)c6)cc5c43)cc21
remaining binding (CHEK2; KINOMEscan; 1 µM; relative to: DMSO control): 100%

COc1ccc(NC(=O)Nc2ccc3c(c2)C(=O)N(C(C)CO)CC(C)C(CN(C)Cc2ccc4c(c2)OCO4)O3)cc1 (stereo not drawn)
remaining activity (CHEK2; kinase activity, KinaseProfiler; 0.03 µM, species human; relative to: control): 97%

Cc1cccc(O[C@H]2CCC[C@@H](C(C)CNCc3ccncc3)C2)c1 (relative stereo)
inhibition (CHEK2; enzyme activity, inhibitor; 1 µM): 5%

O=C=[N][Ru-4]123([n]4c5ccc(O)cc5c5c6c(c7cc(F)c[n+]1c7c54)C(=O)NC6=O)[S+]1CC[S+]2CC[S+]3CC1 (stereo not drawn)
remaining activity (CHEK2 I157T; enzyme activity; 100 nM, human enzyme, together with: 10 µM ATP; relative to: untreated): 87%

CNC(=O)C[C@H](Cc1ccc(C#N)cc1)NC(=O)c1cc(-c2ccc(CN[C@H](C)c3ccc(C)cc3)o2)ccc1Cl
activity vs control (CHEK2; enzyme activity, inhibitor; 1 µM): 110%

C=CC(=O)Nc1cccc(-c2cnc3[nH]cc(C(=O)NC(C)(C)C)c3n2)c1
inhibition (CHEK2; enzyme activity, inhibitor; 0.1 µM): 14%

Repeated from above:
C=CC(=O)N1CCc2ccc(-n3c(=O)ccc4cnc5ccc(-c6cnn(C)c6)cc5c43)cc21
remaining binding (CHEK2; KINOMEscan; 1 µM; relative to: DMSO control): 100%
